Measurements of several laboratories.
Numbered parts are unrelated; each lists some results of a single study. Changes are numbered by the printed parent chain.

Study 1
Target: Interferon regulatory factor 5, full length, phosphomimetic (IRF5, Homo sapiens, UniProt Q13568-2, residues 1-514, S451D/S453D/S456D/S462D)
Method: protein-binding microarray
Molecule type: double-stranded DNA, one strand shown
Medium: in vitro
Tested at: 940 nM top
Notes: 60-bp whole probe
With: salmon DNA 0.4 mg/ml
Reference: random background probes
Reading: higher = stronger binding
Constant ends, left off below: GCCTAGCAC … GTCTTGATTCGCTTGACGCTGCTG
Oligonucleotide	fitted relative affinity [z-score]
TGAGATTTCGGGACTGGATTAGTGCTA	0.329
ATAGGTATCCTTCTCCTTTAGTGCTAG	0.637
GACGGTATCGACACAGGGGACGTGCTA	4.25
TCATCTTCATGTTTTTTACTGTGCTAG	0.95
TTAGGCTTCGACACTGGGTTAGTGCTA	-0.214
TTAGATAGCAGACTGGATTAGTGCTAG	-0.749
TCATCTTTCTGTTTTCTACTGTGCTAG	2.95

Study 2
Target: CCNB2, cyclin fold, Cln2 fusion (human)
Method: yeast growth competition, sequencing
Medium: yeast
Notes: strong parent motif
Reference: not given
Reading: higher = stronger binding
Starting sequence: PKMYT1 docking peptide (human); SFEPRNLLSLFED
Substitution	normalised enrichment score
L10S	0.716
L10D	2.26
E3Q	1.58

Study 3
Target: RNA binding protein fox-1 homolog 2, RRM domain, GST-SBP tag (RBFOX2, Homo sapiens, UniProt O43251-10, residues 100-194)
Method: RNA Bind-n-Seq
Molecule type: RNA
Medium: in vitro
Tested at: 365 nM
Notes: natural RNA segment, single round, ends assumed
Reference: no-protein control
Reading: higher = stronger binding
Constant ends, left off below: GGGAGUUCUACAGUCCGACGAUC … UGGAAUUCUCGGGUGCCAA
Target sequence (chain): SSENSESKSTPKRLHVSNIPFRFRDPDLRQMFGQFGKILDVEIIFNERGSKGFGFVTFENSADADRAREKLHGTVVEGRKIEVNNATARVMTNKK
Oligonucleotide	RBNS enrichment (R)
UCGGAGCGGAGCAGGGUAGGGACCGUGUACAGCUUGAUAACCCUUAAUAAAAAGGGAGUUUGACCAGCUUCUUGUUGUCUCGCGCGGCUAGAAUCCUGGGAACAAGAGAA	1.26
UGGGGGGCCCCUUUGGGAGCAGGCCUGUGUAUCAGGUGACUUCUGUUGACCACUCUCUGAAUAGGCUUCUGUCUGGUACUAACUGGCCAUUACCAGAGAUGUCCUGUGAC	0.24
AGGUGUGUUACUUUGUUGAUCAAUAACUUUGGAACAAUUAUGGAUCAAUUCUAUGGUCACUCUGAAUUUUCAUGUCAUUAAUCACAUAAAAAUUGAUAAUACCUCAUUCU	0.396
CCCUGUGCACCUUUGGGCUGCCCUGGCCCCCACUCUCCCGGGCCGCCCACCACAGGCUCUUAAUGGGGCCGGGUCAGUCCUACAUGUGAGAUGGGUUAGGGCAAGUCUUU	0.546
AGGAUCACAGAGUUCAGGGGGAAAAUGUGACAGCACACGCACAAACGCCUUCACUGGAUCAGCCGCUGGAACUGAGGGAGUGAGCUUGGGGACUUCCUUCGUCAGCACUG	2.92
AGAGUCUUUAGAGAUUUGUUCACUCUCUGAGGGAUCCUCCUGGCUCUGCUUACAUACUUCCAGGGACGGUGAGCUCACGCUCUCUCCGGGCAGCCCUGUGAGUUUCCUAU	0.214

Other studies, line by line
Substance	target	assay	system	conditions	scale	measurement	value
PhoQ, residues 284 288 289 292 302 303 SSTLSG	PhoP, residues 12 14 15 18 19 AGCRL (Escherichia coli, UniProt P23836)	Sort-seq, measured: YFP reporter	E. coli	PhoQ-PhoP variant library, with: 10 µM Mg2+	reference: high Mg2+ state, higher = stronger signaling	fold induction	5.63

Excerpt of the above (study 2):
Substitution	normalised enrichment score
L10S	0.716
E3Q	1.58
